Measurements of several laboratories.
Values joined by “and” are separate records of one study, mostly repeats; a detail may differ. Numbers after ± are the reported error.
niaR T17A: niaR 1-174 T17A (Streptococcus mutans, UniProt Q8DVX8)
B1: CXCL16; sequence looked up; chain NEGSVTGSCYCGKRISSDSPPSVQFMNRLRKHLRAYHRCLYYTRFQLLSWSVCGGNKDPWVQELMSCLDLKECGHAYSGIVAHQKHLLPTSPPISQASEGASSDIHTPAQMLLSTLQSTQRPTLPVGSLSSDKELTRPNETTIHTAGHSLAAGPEAGENQKQPEKNAGPTARTSATVPVLCLLAIIFILTAALSYVLCKRRRGQSPQSSPDLPVHYIPVAPDSNT
B2: Lqq V toxin, rhodamine on Lys60 (Leiurus quinquestriatus quinquestriatus, UniProt P01481); ends and bridges not checked; also: 125I-labelled, site not given here; rhodamine on Lys60; chain LKDGYIVDDKNCTFFCGRNAYCNDECKKKGGESGYCQWASPYGNACWCYKLPDRVSIKEK(6‑carboxytetramethylrhodamine acetamide)GRCN
UniProt P08603, sequence (whole entry, unmodified, looked up): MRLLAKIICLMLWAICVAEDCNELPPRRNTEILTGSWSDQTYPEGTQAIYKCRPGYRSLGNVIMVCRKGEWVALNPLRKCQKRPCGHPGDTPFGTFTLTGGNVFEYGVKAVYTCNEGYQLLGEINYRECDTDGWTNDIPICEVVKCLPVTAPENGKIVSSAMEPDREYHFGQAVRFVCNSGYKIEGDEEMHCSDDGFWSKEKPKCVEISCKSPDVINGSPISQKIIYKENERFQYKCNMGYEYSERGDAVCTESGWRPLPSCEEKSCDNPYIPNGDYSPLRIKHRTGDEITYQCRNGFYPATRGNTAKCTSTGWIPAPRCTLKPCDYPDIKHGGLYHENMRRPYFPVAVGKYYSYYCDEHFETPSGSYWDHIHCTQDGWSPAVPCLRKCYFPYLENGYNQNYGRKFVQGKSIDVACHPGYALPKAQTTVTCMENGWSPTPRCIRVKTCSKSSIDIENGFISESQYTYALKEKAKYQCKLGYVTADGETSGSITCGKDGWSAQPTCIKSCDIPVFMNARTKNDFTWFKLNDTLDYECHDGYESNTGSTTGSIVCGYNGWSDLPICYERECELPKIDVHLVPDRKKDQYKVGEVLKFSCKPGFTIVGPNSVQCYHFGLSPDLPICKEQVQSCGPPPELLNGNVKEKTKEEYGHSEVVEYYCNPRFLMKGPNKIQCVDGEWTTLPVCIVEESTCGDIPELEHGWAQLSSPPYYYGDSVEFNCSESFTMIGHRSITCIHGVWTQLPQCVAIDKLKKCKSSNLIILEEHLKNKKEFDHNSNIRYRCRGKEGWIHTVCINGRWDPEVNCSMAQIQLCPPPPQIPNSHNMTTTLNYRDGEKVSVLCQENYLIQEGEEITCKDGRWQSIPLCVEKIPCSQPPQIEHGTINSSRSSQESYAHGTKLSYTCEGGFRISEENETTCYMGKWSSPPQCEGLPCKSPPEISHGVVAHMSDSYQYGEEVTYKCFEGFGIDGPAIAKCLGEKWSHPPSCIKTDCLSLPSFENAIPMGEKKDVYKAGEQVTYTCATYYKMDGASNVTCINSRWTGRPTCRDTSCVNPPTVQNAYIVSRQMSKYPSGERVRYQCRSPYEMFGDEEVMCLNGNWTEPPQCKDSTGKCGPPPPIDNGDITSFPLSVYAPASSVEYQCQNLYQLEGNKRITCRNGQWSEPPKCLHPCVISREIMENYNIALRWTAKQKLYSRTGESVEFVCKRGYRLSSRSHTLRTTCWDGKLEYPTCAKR
UniProt P04775, sequence (whole entry, looked up): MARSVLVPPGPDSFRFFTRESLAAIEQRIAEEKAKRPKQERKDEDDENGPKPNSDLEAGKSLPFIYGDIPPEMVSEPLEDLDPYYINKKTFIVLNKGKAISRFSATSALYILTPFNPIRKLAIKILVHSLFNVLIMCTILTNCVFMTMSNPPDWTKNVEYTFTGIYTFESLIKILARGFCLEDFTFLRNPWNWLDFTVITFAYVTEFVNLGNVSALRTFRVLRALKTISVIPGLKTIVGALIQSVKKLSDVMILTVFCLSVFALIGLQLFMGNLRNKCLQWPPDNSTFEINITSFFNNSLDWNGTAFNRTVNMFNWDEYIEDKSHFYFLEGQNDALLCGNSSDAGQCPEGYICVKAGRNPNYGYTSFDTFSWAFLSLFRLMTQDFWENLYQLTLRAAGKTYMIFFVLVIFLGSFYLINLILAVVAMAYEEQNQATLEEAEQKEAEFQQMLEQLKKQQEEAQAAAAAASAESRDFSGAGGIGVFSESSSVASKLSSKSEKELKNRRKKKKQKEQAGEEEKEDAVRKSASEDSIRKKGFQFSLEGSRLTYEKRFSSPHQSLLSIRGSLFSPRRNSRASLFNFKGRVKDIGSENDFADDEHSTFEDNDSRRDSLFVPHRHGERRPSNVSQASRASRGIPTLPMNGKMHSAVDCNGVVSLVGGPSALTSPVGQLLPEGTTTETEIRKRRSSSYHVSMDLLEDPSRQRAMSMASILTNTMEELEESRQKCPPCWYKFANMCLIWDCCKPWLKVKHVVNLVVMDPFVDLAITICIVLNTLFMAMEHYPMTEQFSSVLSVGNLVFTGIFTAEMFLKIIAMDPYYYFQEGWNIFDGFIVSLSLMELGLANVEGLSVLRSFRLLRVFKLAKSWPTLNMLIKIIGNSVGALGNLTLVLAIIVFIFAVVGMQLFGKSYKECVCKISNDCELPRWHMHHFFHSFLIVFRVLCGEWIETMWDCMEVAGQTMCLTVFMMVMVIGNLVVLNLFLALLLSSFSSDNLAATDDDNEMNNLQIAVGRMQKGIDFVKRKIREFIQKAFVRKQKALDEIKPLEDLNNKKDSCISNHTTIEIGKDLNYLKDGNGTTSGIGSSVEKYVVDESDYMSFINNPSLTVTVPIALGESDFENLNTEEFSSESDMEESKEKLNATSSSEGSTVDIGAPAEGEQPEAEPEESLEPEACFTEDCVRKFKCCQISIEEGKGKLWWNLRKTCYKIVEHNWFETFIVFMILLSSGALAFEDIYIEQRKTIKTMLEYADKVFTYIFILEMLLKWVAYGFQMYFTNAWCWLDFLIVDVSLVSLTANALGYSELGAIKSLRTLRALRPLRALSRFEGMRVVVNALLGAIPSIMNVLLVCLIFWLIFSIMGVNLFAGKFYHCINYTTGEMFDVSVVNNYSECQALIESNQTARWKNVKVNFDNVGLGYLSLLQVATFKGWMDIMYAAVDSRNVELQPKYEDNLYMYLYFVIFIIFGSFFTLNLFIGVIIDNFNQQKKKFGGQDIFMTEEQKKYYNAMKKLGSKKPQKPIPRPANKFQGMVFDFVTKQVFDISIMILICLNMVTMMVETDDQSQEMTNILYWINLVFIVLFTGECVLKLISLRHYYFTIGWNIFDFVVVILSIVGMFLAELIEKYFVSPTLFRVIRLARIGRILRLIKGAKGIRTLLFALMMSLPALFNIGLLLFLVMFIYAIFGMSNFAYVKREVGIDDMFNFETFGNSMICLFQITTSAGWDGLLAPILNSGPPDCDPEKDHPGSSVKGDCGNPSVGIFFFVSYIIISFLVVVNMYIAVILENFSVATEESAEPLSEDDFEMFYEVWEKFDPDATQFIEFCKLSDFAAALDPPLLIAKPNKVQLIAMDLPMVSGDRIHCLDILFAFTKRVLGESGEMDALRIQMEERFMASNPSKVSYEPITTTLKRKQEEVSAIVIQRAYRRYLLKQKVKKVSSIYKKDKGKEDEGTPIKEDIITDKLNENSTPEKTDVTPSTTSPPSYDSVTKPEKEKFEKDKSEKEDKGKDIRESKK

| Substance | tested on | test | test system | setting | scale | quantity | value |
| --- | --- | --- | --- | --- | --- | --- | --- |
| trehalose dimycolate |  | flow cytometry | C57BL/6 mice, lung | intravenous, 100 µg, day 5 | baseline: vehicle | alveolar macrophage frequency increase | 1 ± 1.1% |
| (±)-nornicotine | Haemonchus contortus | larval migration | Weybridge susceptible L3 | 20 min |  | IC50 | 775 ± 36.4 µM |
| CC(C)C(=O)OC[C@@]1(F)O[C@@H](n2cnc(-c3cnc(N)[nH]c3=O)c2)[C@H](OC(=O)C(C)C)[C@@H]1OC(=O)C(C)C | Zaire ebolavirus | viral replication, reporter virus | Huh-7 | 72 h |  | IC50 | 86.8 µM |
| quinacrine mustard | Dengue virus type 2 | viral replication, Rluc reporter replicon | BHK-21 with DENV2 replicon | 50 µM, 24 h |  | inhibition | 99.9 ± 0.01% |
| COc1ncc(-c2cn([C@@H]3O[C@](F)(CO[P@@](=O)(N[C@@H](C)C(=O)OC(C)C)Oc4ccccc4)[C@@H](O)[C@H]3O)cn2)cn1 | Zaire ebolavirus | viral replication, reporter virus | Huh-7 | 72 h |  | IC50 | > 100 µM |
| GTCTTTAATAATTAAACTAGTGTCTTGACAGATGTAAACAACAGGTATAAAC (dsDNA) | niaR T17A | EMSA | double-stranded DNA, one strand shown |  |  | binding | binds |
| B1 (CXCL16) | Human immunodeficiency virus 1 | TZM-bl readout | PHA-stimulated human PBMCs, CCR5-tropic | 500 ng/mL |  | viral replication | no effect |
| FAVDAAKAY |  | T cell recognition, HLA-B*07:02 tetramer staining | peptide, CD8+ T cells, COVID-19 convalescent human subjects, HLA-B*07:02 | dose not given, 5 subjects tested |  | tetramer-reactive CD8+ T cell count | 4 |
| YISPQYYGETWVTTIG | Polyprotein P1234, nsP2 protease domain (Chikungunya virus, UniProt Q8JUX6) | binding, phage display | peptide |  | direction not given | enrichment score | 104 |
| ELPDEFVVVTV |  |  | peptide, tetramer-reactive CD8+ T cells, COVID-19 convalescent HLA-A*02:01 subjects |  |  | number of clonotypes | 60 |
| COc1ncncc1-c1cn([C@@H]2O[C@](F)(CO)[C@@H](O)[C@H]2O)cn1 | Zaire ebolavirus | viral replication, reporter virus | Huh-7 | 72 h |  | IC50 | 35.1 µM |
| ILKEPVHGVY | KIR2DL2− 2DS2− 2DL3+ NK cells | NK cell response | peptide, human | concentration not given, with: peptide-pulsed RMA-S cells | baseline: no peptide | relative reactivity | 95.5% and 99.3% and 97.3% |
| KLPQLCTEV | HN12 (HLA-A2+ HPV+) | 111In release | peptide | concentration not given, 16 h, E:T 25:1 IVS 5, with: peptide-generated T-cell line |  | specific lysis | 49.4% |
| COc1ncc(-c2cn([C@@H]3O[C@](F)(CO[P@@](=O)(N[C@@H](C)C(=O)OC(C)C)Oc4ccccc4)[C@@H](O)[C@H]3O)cn2)c(OC)n1 | Zaire ebolavirus | viral replication, reporter virus | Huh-7 | 72 h |  | IC50 | > 100 µM |
| Cc1cccc(NC(=O)C[S+]([O-])c2nc(-c3ccccc3)cn2-c2ccc(Cl)cc2)c1C (racemic) | Middle East respiratory syndrome-related coronavirus | viral entry |  |  |  | IC50 | 17.1 µM |
| LATNNLVVM |  |  | peptide, tetramer-reactive CD8+ T cells, unexposed HLA-A*02:01 subjects |  |  | number of clonotypes | 4 |
| ILKEPVHGAY | KIR2DL2+ 2DS2+ 2DL3− NK cells | NK cell response | peptide, human | concentration not given, with: peptide-pulsed RMA-S cells | baseline: no peptide | relative reactivity | 92.2% and 88.4% and 77.6% |
| TFFRLFNRSFTGRRRRSVQWCA | Streptococcus mutans | 2D-DIGE, item: N-acetylglucosamine-6-phosphate isomerase | peptide, UA159 | 20 µg/mL, 1 h | baseline: water control | protein level ratio | -6.09 |
| cbpA fragment (Streptococcus pneumoniae) | CFH 508-567 M497E (Homo sapiens, UniProt P08603) | ITC |  |  |  | ΔH | -15.5 ± 0.32 kcal/mol |
| α-dendrotoxin | Kv channel (rat) | radioligand binding, antagonist |  |  |  | Ki | 0.00022 µM |
| TTTATAAAAAACCAATATATGTCTTGACACATGTAAAAAACGTTGTATAATG (dsDNA) | niaR T17A | EMSA | double-stranded DNA, one strand shown |  |  | binding | binds |
| RPPIFIRRL |  | T-cell response | peptide, CD8+ T cells, HLA-A*02:01 unexposed humans |  |  | number of clonotypes | 0 |
| B2 | Scn2a whole channel (Rattus norvegicus, UniProt P04775) | radioligand | peptide |  |  | Kd | 0.0065 µM |
| VGYLQPRTF |  |  | peptide, tetramer-reactive CD8+ T cells, unexposed HLA-A*02:01 subjects |  |  | number of clonotypes | 1 |
| autoinducing peptide I | AgrC-I H239Q (Staphylococcus aureus) | reporter gene, agonist | Staphylococcus aureus P3-blaZ reporter, Staphylococcus aureus |  |  | EC50 | > 10 µM |

For quick reference, copied from above:
| Substance | tested on | test | test system | setting | scale | quantity | value |
| --- | --- | --- | --- | --- | --- | --- | --- |
| α-dendrotoxin | Kv channel (rat) | radioligand binding, antagonist |  |  |  | Ki | 0.00022 µM |
| RPPIFIRRL |  | T-cell response | peptide, CD8+ T cells, HLA-A*02:01 unexposed humans |  |  | number of clonotypes | 0 |
| TFFRLFNRSFTGRRRRSVQWCA | Streptococcus mutans | 2D-DIGE, item: N-acetylglucosamine-6-phosphate isomerase | peptide, UA159 | 20 µg/mL, 1 h | baseline: water control | protein level ratio | -6.09 |
